Assay results gathered from unrelated publications.
Each line is one published result; not all experiments were run side by side. ± gives the spread as reported.
Organism: Leishmania donovani

CN1CCCN2CCN(CCCN(Cc3ccccc3)CC2)CC1
IC50 (parasite growth, resazurin; 72 h, amastigote): > 20 µM

c1ccc(Oc2ccc(Nc3c4c(nc5ccccc35)CCC4)cc2)cc1
IC50 (DD8 resistant line, promastigotes): 8.93 ± 0.67 µM

Cc1ccc(Cn2cc(C=O)c3cc([N+](=O)[O-])ccc32)cc1
IC50 (parasite growth, resazurin; THP-1; 24 h, intracellular, amastigote): > 10 µM

meglumine antimoniate
IC50 (intracellular amastigotes): 33.3 ± 1.2 µM

COc1cc2c(=O)c(C(=O)NCCNCCO)cn(Cc3ccccc3)c2cc1OCc1cccc(F)c1
IC50 (Bob promastigotes; 120 h): > 20 µM

c1ccc(CN2CCN3CCCN(CC2)CCN(Cc2ccccc2)CC3)cc1
IC50 (parasite growth, resazurin; 72 h, amastigote): > 25 µM

O=Cc1cn(Cc2ccc(F)cc2)c2ccc([N+](=O)[O-])cc12
IC50 (parasite growth, resazurin; THP-1; 72 h, intracellular, amastigote): > 10 µM

c1ccc(CN2CCCNCCN(Cc3ccccc3)CCCNCC2)cc1
IC50 (parasite growth, resazurin; 72 h, promastigote): 9.4 µM

O=Cc1cn(Cc2ccccc2)c2ccc([N+](=O)[O-])cc12
IC50 (parasite growth, resazurin; promastigote): > 100 µM

CN1CCN2CCN(CC1)CCN(Cc1ccccc1)CC2
IC50 (parasite growth, resazurin; 72 h, amastigote): > 20 µM

O=Cc1cn(Cc2cccc(Cl)c2)c2ccc([N+](=O)[O-])cc12
IC50 (parasite growth, resazurin; THP-1; 24 h, intracellular, amastigote): > 10 µM

C[C@H]1N[C@@H](CCCCCCCCCCC2=C[C@@H](CCCCCCCCCC[C@H]3CC[C@@H](O)[C@@H](C)N3)[C@@H]3CCCN3C2)CC[C@H]1O
IC50 (parasite growth; THP-1; intracellular, amastigote): 0.79 µg/mL

Repeated from above:
C[C@H]1N[C@@H](CCCCCCCCCCC2=C[C@@H](CCCCCCCCCC[C@H]3CC[C@@H](O)[C@@H](C)N3)[C@@H]3CCCN3C2)CC[C@H]1O
IC50 (parasite growth; THP-1; intracellular, amastigote): 0.79 µg/mL
